Published values of several laboratories.
Compare with care: the assays were run in different laboratories. Numbers after ± are the reported error.
CHRM1: Muscarinic acetylcholine receptor M1 (CHRM1, Homo sapiens, UniProt P11229)
UniProt P11229, sequence (whole entry, looked up): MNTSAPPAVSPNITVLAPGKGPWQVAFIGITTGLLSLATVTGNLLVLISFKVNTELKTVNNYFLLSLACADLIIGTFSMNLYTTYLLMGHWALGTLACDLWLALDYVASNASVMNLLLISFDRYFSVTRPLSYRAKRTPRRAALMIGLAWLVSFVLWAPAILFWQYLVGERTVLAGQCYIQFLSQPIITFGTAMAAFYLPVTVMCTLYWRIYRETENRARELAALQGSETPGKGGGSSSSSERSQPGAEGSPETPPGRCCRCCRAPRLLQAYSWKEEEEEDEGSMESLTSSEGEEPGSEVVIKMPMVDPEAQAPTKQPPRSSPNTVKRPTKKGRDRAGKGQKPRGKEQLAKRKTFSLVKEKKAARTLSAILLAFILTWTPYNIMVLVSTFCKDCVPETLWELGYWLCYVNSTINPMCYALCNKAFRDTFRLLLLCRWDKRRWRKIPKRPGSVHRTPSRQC
UniProt P31424, sequence (whole entry, looked up): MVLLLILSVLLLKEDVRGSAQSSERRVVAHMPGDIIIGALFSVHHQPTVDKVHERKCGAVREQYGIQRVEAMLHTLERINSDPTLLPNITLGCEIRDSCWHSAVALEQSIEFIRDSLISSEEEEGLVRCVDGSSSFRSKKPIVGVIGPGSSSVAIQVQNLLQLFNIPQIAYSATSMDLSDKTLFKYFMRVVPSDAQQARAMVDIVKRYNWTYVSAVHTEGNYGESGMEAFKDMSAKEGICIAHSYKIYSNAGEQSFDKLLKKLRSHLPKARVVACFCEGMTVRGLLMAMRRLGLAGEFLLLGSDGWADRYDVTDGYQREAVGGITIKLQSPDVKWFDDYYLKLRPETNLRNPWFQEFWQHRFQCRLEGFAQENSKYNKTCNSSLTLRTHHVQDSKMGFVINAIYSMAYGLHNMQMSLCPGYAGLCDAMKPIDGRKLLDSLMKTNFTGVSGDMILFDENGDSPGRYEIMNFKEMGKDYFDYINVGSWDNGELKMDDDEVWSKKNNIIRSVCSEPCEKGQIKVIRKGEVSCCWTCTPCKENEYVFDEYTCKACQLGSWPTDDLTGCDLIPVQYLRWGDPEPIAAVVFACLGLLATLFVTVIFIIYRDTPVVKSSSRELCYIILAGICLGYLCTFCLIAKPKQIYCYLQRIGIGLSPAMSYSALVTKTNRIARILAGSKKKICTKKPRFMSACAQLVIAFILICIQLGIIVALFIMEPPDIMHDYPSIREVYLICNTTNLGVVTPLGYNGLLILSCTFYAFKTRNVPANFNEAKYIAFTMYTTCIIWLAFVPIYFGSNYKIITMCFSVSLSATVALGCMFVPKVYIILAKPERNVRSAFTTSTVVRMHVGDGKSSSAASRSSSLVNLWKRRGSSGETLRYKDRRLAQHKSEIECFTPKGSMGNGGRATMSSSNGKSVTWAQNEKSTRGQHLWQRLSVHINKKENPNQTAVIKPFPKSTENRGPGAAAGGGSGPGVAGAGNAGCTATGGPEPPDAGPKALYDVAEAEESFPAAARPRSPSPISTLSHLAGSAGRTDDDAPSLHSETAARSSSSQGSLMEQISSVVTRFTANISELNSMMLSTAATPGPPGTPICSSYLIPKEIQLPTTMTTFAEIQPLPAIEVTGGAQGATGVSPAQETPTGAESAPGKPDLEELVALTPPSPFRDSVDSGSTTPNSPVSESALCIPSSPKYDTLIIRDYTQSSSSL
UniProt Q02111, sequence (whole entry, looked up): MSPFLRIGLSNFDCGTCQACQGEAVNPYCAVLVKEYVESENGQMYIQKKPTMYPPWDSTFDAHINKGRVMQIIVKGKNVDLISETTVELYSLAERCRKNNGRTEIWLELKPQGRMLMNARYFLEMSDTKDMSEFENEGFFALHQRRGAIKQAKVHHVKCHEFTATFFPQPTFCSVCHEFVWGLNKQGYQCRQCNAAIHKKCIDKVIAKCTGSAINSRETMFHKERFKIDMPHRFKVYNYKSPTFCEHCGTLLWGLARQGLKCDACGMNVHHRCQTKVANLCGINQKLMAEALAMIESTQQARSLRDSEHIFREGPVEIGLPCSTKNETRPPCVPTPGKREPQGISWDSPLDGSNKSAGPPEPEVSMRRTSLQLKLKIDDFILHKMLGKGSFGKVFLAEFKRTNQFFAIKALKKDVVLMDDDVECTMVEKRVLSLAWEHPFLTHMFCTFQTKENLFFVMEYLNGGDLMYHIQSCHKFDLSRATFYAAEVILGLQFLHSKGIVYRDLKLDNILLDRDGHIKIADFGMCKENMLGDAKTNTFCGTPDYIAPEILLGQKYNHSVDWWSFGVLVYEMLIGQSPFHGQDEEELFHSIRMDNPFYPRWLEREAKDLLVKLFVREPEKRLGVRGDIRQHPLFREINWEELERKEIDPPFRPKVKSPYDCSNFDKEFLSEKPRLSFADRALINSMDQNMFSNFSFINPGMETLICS
UniProt P08173, sequence (whole entry, looked up): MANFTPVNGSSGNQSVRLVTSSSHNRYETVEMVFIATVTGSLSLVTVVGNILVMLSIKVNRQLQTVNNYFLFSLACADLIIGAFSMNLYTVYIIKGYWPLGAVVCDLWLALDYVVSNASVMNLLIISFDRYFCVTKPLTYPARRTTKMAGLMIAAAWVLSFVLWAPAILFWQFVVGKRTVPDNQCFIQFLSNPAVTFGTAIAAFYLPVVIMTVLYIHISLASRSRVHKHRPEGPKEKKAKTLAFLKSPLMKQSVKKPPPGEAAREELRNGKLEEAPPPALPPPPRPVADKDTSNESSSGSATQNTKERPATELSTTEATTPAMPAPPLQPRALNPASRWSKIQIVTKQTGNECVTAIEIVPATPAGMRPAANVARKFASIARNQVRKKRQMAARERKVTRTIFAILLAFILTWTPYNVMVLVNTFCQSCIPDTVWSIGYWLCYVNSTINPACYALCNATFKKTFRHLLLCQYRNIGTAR
UniProt Q9Y5Y9, sequence (whole entry, looked up): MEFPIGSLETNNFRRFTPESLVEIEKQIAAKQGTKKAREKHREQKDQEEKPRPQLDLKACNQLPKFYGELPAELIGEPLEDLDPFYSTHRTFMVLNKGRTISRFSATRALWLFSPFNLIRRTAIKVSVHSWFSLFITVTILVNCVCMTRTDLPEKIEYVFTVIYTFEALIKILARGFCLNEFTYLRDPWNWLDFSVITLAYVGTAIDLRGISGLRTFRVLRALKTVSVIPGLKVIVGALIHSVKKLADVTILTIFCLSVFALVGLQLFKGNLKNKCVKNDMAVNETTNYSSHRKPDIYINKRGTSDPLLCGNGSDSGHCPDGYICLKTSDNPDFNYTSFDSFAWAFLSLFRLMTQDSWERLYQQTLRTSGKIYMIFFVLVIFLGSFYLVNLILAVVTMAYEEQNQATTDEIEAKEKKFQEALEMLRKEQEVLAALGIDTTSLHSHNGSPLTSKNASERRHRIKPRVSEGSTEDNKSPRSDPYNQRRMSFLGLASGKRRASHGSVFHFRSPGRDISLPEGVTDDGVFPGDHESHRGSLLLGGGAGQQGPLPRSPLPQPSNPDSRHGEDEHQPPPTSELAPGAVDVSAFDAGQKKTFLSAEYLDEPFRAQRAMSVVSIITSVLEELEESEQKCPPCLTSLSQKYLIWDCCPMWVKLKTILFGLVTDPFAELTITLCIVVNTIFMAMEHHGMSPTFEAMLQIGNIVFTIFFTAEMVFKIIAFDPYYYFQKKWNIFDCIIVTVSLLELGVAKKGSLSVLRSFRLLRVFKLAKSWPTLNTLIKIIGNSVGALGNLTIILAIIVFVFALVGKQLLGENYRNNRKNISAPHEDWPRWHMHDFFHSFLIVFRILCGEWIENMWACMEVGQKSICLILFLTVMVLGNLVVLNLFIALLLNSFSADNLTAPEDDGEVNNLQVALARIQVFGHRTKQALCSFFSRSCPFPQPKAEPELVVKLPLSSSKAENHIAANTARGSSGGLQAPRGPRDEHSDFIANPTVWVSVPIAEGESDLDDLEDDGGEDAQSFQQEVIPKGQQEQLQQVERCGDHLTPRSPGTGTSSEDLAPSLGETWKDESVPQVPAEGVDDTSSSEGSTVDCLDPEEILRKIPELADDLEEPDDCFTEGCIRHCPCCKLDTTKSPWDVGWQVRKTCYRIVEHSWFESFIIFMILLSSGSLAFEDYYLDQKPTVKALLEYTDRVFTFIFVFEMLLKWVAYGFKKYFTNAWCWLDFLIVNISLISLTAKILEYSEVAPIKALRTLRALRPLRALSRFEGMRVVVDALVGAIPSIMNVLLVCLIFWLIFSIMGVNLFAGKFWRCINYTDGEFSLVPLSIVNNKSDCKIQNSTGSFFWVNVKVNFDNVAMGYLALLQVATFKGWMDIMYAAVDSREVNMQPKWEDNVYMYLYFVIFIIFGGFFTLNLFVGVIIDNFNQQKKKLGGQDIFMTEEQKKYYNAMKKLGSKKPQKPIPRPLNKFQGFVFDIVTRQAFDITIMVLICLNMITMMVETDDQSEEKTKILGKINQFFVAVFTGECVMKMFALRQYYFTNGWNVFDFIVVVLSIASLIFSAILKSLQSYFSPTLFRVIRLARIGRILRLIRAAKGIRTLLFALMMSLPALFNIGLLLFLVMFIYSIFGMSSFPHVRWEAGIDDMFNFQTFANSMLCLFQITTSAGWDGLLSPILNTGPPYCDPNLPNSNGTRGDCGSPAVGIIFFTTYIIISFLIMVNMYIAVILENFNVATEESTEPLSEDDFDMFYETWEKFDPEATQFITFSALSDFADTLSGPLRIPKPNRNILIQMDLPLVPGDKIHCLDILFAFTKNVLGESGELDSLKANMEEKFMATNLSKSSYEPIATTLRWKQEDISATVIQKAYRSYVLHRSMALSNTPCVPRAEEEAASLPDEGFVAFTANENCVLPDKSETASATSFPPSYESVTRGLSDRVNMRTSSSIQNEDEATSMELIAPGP

Under “maximal ATPase stimulation”, `Cc1cc(F)c(Nc2ncnc3cc(OCc4ccccc4)ccc23)cc1O` is recorded as 3.18 (ABCG2 (Homo sapiens, UniProt Q9UNQ0); vanadate-sensitive ATPase activity, activator; membrane vesicles; unit not given; relative to: basal).
For `CCCCCCCCCCCCCCCCOc1ccc(/C=C/C(O)=C/C(=O)/C=C/c2ccc(O)c(OC)c2)cc1OC`, the emission maximum was 561 nm (Protein kinase C theta type, C1B domain (Mus musculus, UniProt Q02111); buffer; 5×1 µM, 1 h, 25 °C, protein excess).
`CC[C@H](C)[C@H](NC(=O)[C@H](CC(C)C)NC(=O)[C@H](CC(C)C)NC(=O)CNC(=O)[C@H](Cc1ccc(O)cc1)NC(=O)[C@H](CCCNC(=N)N)NC(=O)[C@H](CO)NC(C)=O)C(=O)N[C@@H](CCCCN)C(=O)N[C@@H](C)C(=O)N[C@@H](Cc1ccccc1)C(=O)N[C@@H](CO)C(=O)N[C@@H](CCSC)C(=O)N[C@H](C(=O)N[C@@H](C)C(=O)N[C@@H](C)C(=O)N[C@@H](CCC(=O)O)C(=O)N[C@H](C(=O)N[C@@H](C)C(=O)N[C@@H](CCCNC(=N)N)C(=O)N[C@@H](CCCNC(=N)N)C(=O)N[C@H](C(=O)N[C@@H](CCCNC(=N)N)C(=O)N[C@@H](CCC(=O)O)C(=O)N[C@@H](Cc1ccccc1)C(=O)N[C@@H](CCCNC(=N)N)C(N)=O)[C@@H](C)O)[C@@H](C)O)[C@@H](C)O` gave an apparent ΔG2 of -15.54 ± 0.08 kcal/mol (calmodulin 76-148 sites III and IV; calcium binding, Tyr fluorescence titration; 12 µM, pH 7.4, 22 °C, added: 6 µM calmodulin).
With `CIKVAVS` the maximum inhibition was 0% (human polyclonal IgM rheumatoid factor; binding to mAb II-481; peptide; combined CDR peptides, serum SOR).
Under “change in baseline activity”, `CS(=O)(=O)c1ccc(COc2ccccc2-c2cc(=O)n(C3CCCCC3O)cn2)cc1` (stereo not drawn) is recorded as 52.4 ± 2.9 (CHRM1; allosteric agonist, IP1 accumulation; CHO-M1 cells; 10 µM, unit not given; relative to: maximum ACh response).
`CQLGPYELWELSH` — result for binding: “increased” (rituximab; QCM frequency change, QCM; peptide; concentration not given, added: rituximab 1 µg/µL).
Under “capacity factor k′”, `CCCCOC(=O)c1scc(C)c1NC(=O)C(C)NCCC` (stereo not drawn) is recorded as 26 (SCN10A (Homo sapiens, UniProt Q9Y5Y9); cell membrane chromatography; higher = stronger binding).
`COc1ccc(C)c2sc(NS(=O)(=O)c3cccc(Cl)c3)nc12`: activity “inactive” (CHRM4 (Homo sapiens, UniProt P08173); calcium mobilization, positive allosteric modulator; CHO expressing hM4 and Gqi5; concentration not given, added: acetylcholine EC20).
`O=c1cc(-c2ccccc2OCc2ccc(Cl)nc2)ncn1C1CCCCC1O` (stereo not drawn) — result for “ΔpEC50 of ACh”: 0.56 ± 0.08 log units (CHRM1; positive allosteric modulator, IP1 accumulation; CHO-M1 cells; 1 µM, 60 min, 37 °C, added: ACh; relative to: ACh alone, higher = stronger potentiation).
`N#Cc1cnc(Nc2nc3ccccc3o2)nc1-c1ccc(F)c(F)c1` gave a maximal response of 9.6 ± 0.7% (Grm5 (Rattus norvegicus, UniProt P31424); calcium mobilization, negative allosteric modulator; added: glutamate EC80; relative to: maximal glutamate response).
For `CCCCn1cc(-c2ccc(COc3ccccc3-c3cc(=O)n(C4CCCCC4O)cn3)cc2)cn1` (stereo not drawn), “ΔpEC50 of ACh” read 2.01 ± 0.23 log units (CHRM1; positive allosteric modulator, IP1 accumulation; CHO-M1 cells; 10 µM, 60 min, 37 °C, added: ACh; relative to: ACh alone, higher = stronger potentiation).
`CCN(c1ccc(OC)cc1)S(=O)(=O)C1CC2OC1C(c1ccc(O)cc1)=C2c1ccc(O)cc1` (stereo not drawn) gave an efficacy of -4 ± 4% (ESR2 (Homo sapiens, UniProt Q92731); reporter gene, antagonist; HepG2; added: estradiol 10 nM; relative to: E2 response, negative is inverse agonism).
For `Cc1ccc(S(=O)(=O)Nc2ccc(-n3nc(C(F)(F)F)cc3C(F)(F)F)cc2)cc1`, the peak current was -1.01 ± 0.57 pA/pF (TRPC3 (Homo sapiens, UniProt Q13507); TRPC3 receptor-operated current, inhibitor, patch clamp; HEK293 transiently expressing TRPC3; 3 µM, added: carbachol maximal activation).
With `O=C(O)[C@H]1O[C@@H](Oc2ccc3c(=O)c(O)c(-c4ccc(O)cc4)oc3c2)[C@H](O)[C@@H](O)[C@@H]1O` the Ksi was 1.26 ± 0.54 µM (UGT1A1 (Homo sapiens, UniProt P22309); glucuronidation, substrate, measured: 3,7,4'-trihydroxyflavone glucuronide).
`Cn1cc(-c2ccc(COc3ccccc3-c3cc(=O)n(C4CCCCC4O)cn3)cc2)cn1` (stereo not drawn) — result for “ΔpEC50 of ACh”: 1.28 ± 0.42 log units (CHRM1; positive allosteric modulator, IP1 accumulation; CHO-M1 cells; 10 µM, 60 min, 37 °C, added: ACh; relative to: ACh alone, higher = stronger potentiation).

Some of these lines once more:
`CC[C@H](C)[C@H](NC(=O)[C@H](CC(C)C)NC(=O)[C@H](CC(C)C)NC(=O)CNC(=O)[C@H](Cc1ccc(O)cc1)NC(=O)[C@H](CCCNC(=N)N)NC(=O)[C@H](CO)NC(C)=O)C(=O)N[C@@H](CCCCN)C(=O)N[C@@H](C)C(=O)N[C@@H](Cc1ccccc1)C(=O)N[C@@H](CO)C(=O)N[C@@H](CCSC)C(=O)N[C@H](C(=O)N[C@@H](C)C(=O)N[C@@H](C)C(=O)N[C@@H](CCC(=O)O)C(=O)N[C@H](C(=O)N[C@@H](C)C(=O)N[C@@H](CCCNC(=N)N)C(=O)N[C@@H](CCCNC(=N)N)C(=O)N[C@H](C(=O)N[C@@H](CCCNC(=N)N)C(=O)N[C@@H](CCC(=O)O)C(=O)N[C@@H](Cc1ccccc1)C(=O)N[C@@H](CCCNC(=N)N)C(N)=O)[C@@H](C)O)[C@@H](C)O)[C@@H](C)O` gave an apparent ΔG2 of -15.54 ± 0.08 kcal/mol (calmodulin 76-148 sites III and IV; calcium binding, Tyr fluorescence titration; 12 µM, pH 7.4, 22 °C, added: 6 µM calmodulin).
